Measurements of several laboratories.
Compare with care: the assays were run in different laboratories. Several values in a cell are separate wells, animals, samples, runs or records.

CC1=C(Cn2ccnn2)C(=O)c2ccccc2C1=O
killing (Schistosoma mansoni; adult worms; 25 µM, 24 h): 46%

C[C@H](Oc1ccc(Br)cc1-c1ccon1)C(=O)O
peak amplitude change (muscle velocity recovery cycles; human, tibialis anterior muscle; 400 mg twice daily, multiple doses, frequency ramp, first response at 15 Hz; relative to: placebo): -1.64%

Cn1cc(-c2ccc(-c3cncc(Cl)c3N3CCC4(CCNC4=O)CC3)cc2)cn1
log2 fold change (COLO 205; gene expression, microarray, refers to: AOC3 mRNA; concentration not given, 6 h; relative to: untreated cells): 1.38

COc1ccc(Nc2cnnc3ccc(-c4ccc(S(=O)(=O)N5CCN(C)CC5)cc4)cc23)cc1
phenotypic severity score (Schistosoma mansoni; adult worms; 10 µM, 24 h; direction not given): 0

CC(C)c1c(C(=O)Nc2ccccc2)c(-c2ccccc2)c(-c2ccc(F)cc2)n1CC[C@@H](O)C[C@@H](O)CC(=O)O
inhibition (Nedd8-cullin1 interaction; neddylation, AlphaScreen; 100 µM): -43.5%

CCn1cc(-c2cc(Cn3ccoc3=N)cc3c2CCN([C@@H](C)c2cc(OC)ccn2)C3=O)c(C(F)(F)F)n1
EC50 (KMS-26; cell growth, inhibitor; 120 h): 0.00352 µM

CC(C)NCC(O)c1ccc(O)c(O)c1 (centres unmarked)
sarcomere length (ventricular cardiomyocytes, C57BL/6 mouse; dose not given, 0.168 s): 1.52 µm

NCc1ccc(C(=O)O)cc1
inhibition (Nedd8-cullin1 interaction; neddylation, AlphaScreen; 100 µM): 16.5%

COc1ccc(Nc2cnnc3cc(-c4ccc(S(=O)(=O)N5CCN(C)CC5)cc4)ccc23)cc1
phenotypic severity score (Schistosoma mansoni; adult worms; 10 µM, 5 h; direction not given): 0

COc1cc2nccc(Oc3ccc(NC(=O)C4(C(=O)Nc5ccc(F)cc5)CC4)cc3)c2cc1OC
IC50 (HD-MB03; 168 h): inactive

[Ca+2]
desensitization time constant (human TRPA1 W1103A; ion current, two-electrode voltage clamp; Xenopus oocytes; +80 mV, with: AITC): 145 s and 155 s and 299 s and 217 s and 192 s

CC1=C(Cn2ccnc2[N+](=O)[O-])C(=O)c2ccccc2C1=O
killing (Schistosoma mansoni; adult worms; 25 µM, 72 h): 71.3%

Cc1ccc(Nc2cnnc3ccc(-c4ccc(S(=O)(=O)N5CCN(C)CC5)cc4)cc23)cn1
phenotypic severity score (Schistosoma mansoni; adult worms; 10 µM, 1 h; direction not given): 0

CCn1cc(-c2cc(Cn3ccnc3)cc3c2CCN([C@H](c2cc(OC)ccn2)C2CC2)C3=O)c(C(F)(F)F)n1
EC50 (NCI-H2126; cell growth, inhibitor; 120 h): > 30 µM

O=C(/C=C/C=C/C=C/C1CCCCC1)NC1=C[C@@](O)(/C=C/C=C/C=C/C(=O)NC2=C(O)CCC2=O)[C@@H]2O[C@@H]2C1=O
GI50 (HCC44; cell growth, CellTiter-Glo; 78 h): 24.6 µM

COc1ccccc1N1CCN(CCCNc2cc(=O)n(C)c(=O)n2C)CC1
inhibition (Nedd8-cullin1 interaction; neddylation, AlphaScreen; 100 µM): 23.5%

COc1cnc2cccc(N3CCc4c(cc(Cn5ccnc5C)cc4-c4cn(C)nc4C(F)(F)F)C3=O)c2c1
EC50 (TE-5; cell growth, inhibitor; 120 h): 21.3 µM

COc1ccc(Nc2cnnc3ccc(-c4ccc(N5CCN(C)CC5)cc4)cc23)cc1
phenotypic severity score (Schistosoma mansoni; adult worms; 10 µM, 5 h; direction not given): 2

CC1=C(Cc2cn(CC#N)nn2)C(=O)c2ccccc2C1=O
killing (Schistosoma mansoni; adult worms; 25 µM, 24 h): 38.5%

O=C(O)CNC(=O)Cc1ccccc1
sarcomere length (ventricular cardiomyocytes, C57BL/6 mouse; dose not given, 0.704 s): 1.72 µm

CN1CCN(c2ccc(-c3ccc4c(Nc5ncccn5)cnnc4c3)cc2)CC1
phenotypic severity score (Schistosoma mansoni; adult worms; 10 µM, 1 h; direction not given): 0

NC(=O)c1cnc2[nH]ccc2c1N[C@@H]1[C@@H]2CC3C[C@H]1C[C@@](O)(C3)C2
percent change (CD4+ naive T cells, flow cytometry; Caucasian humans, peripheral blood; 200 mg single dose; relative to: baseline): -1.58%

CC1=C(Cn2cncn2)C(=O)c2ccccc2C1=O
killing (Schistosoma mansoni; adult worms; 10 µM, 48 h): 44.4%

COc1ccccc1Oc1c(NS(=O)(=O)c2ccc(C(C)(C)C)cc2)nc(-c2ncccn2)nc1OCCO
inhibition (Nedd8-cullin1 interaction; neddylation, AlphaScreen; 100 µM): 9.2%

OC(CCN1CCCCC1)(c1ccccc1)C1CC2C=CC1C2 (centres unmarked)
change, Theta power, EEG Pz-O2 (resting-state EEG; healthy elderly humans; oral, 2 mg, eyes closed, LS mean; relative to: baseline): -17.9%

O=C1[C@H](CC[C@H](O)c2ccc(F)cc2)[C@@H](c2ccc(O)cc2)N1c1ccc(F)cc1
inhibition (Nedd8-cullin1 interaction; neddylation, AlphaScreen; 100 µM): 13%

CN1CCN(c2ccc(-c3ccc4nncc(Nc5cnccn5)c4c3)cc2)CC1
phenotypic severity score (Schistosoma mansoni; adult worms; 10 µM, 48 h; direction not given): 1

CC1=C(Cn2cc(CN3CCOCC3)nn2)C(=O)c2ccccc2C1=O
killing (Schistosoma mansoni; adult worms; 10 µM, 48 h): 44.4%

CCC[C@H](N[C@@H](C)C(=O)N1[C@H](C(=O)O)C[C@@H]2CCCC[C@@H]21)C(=O)OCC
inhibition (Nedd8-cullin1 interaction; neddylation, AlphaScreen; 100 µM): 4.6%

CC1=C(Cc2cn(CCN3CCNCC3)nn2)C(=O)c2ccccc2C1=O
killing (Schistosoma mansoni; adult worms; 10 µM, 48 h): 50%

N#Cc1ccn2c(-c3ccncc3)c(-c3ccc(F)cc3)nc2c1
log2 fold change (kinase binding, competitor, MIB/MS competition, refers to: CEK1; Candida albicans cell lysate; 1 µM; relative to: DMSO): 0.279

CN1CCN(S(=O)(=O)c2ccc(-c3ccc4nncc(Nc5ncccn5)c4c3)cc2)CC1
phenotypic severity score (Schistosoma mansoni; adult worms; 10 µM, 24 h; direction not given): 0

CC(C)(C)NCC(O)COc1cccc2c1CCC(=O)N2 (centres unmarked)
inhibition (Nedd8-cullin1 interaction; neddylation, AlphaScreen; 100 µM): 60.9%

CC1=C(Cc2cn(CCN3CCN(C(=O)OC(C)(C)C)CC3)nn2)C(=O)c2ccccc2C1=O
killing (Schistosoma mansoni; adult worms; 25 µM, 72 h): 49.9%

CCCOC(=O)c1cc(O)c(O)c(O)c1
inhibition (Nedd8-cullin1 interaction; neddylation, AlphaScreen; 100 µM): 8.39%

CC1=C(Cc2cn(CCO)nn2)C(=O)c2ccccc2C1=O
selectivity index (Schistosoma mansoni; NTS; relative to: L6 CC50 over IC50): 12.2

CN1CCN(c2ncc(-c3ccc4c(Nc5ncccn5)cnnc4c3)cn2)CC1
phenotypic severity score (Schistosoma mansoni; adult worms; 10 µM, 48 h; direction not given): 0

COc1cc(Br)c(Nc2nc(-c3c(C)nc4ncccn34)cs2)c(Br)c1
IC50 (HD-MB03; cell growth; single agent): 0.472 µM

Excerpt of the above:
CC1=C(Cn2ccnc2[N+](=O)[O-])C(=O)c2ccccc2C1=O
killing (Schistosoma mansoni; adult worms; 25 µM, 72 h): 71.3%

Cc1ccc(Nc2cnnc3ccc(-c4ccc(S(=O)(=O)N5CCN(C)CC5)cc4)cc23)cn1
phenotypic severity score (Schistosoma mansoni; adult worms; 10 µM, 1 h; direction not given): 0

CCn1cc(-c2cc(Cn3ccnc3)cc3c2CCN([C@H](c2cc(OC)ccn2)C2CC2)C3=O)c(C(F)(F)F)n1
EC50 (NCI-H2126; cell growth, inhibitor; 120 h): > 30 µM

O=C(/C=C/C=C/C=C/C1CCCCC1)NC1=C[C@@](O)(/C=C/C=C/C=C/C(=O)NC2=C(O)CCC2=O)[C@@H]2O[C@@H]2C1=O
GI50 (HCC44; cell growth, CellTiter-Glo; 78 h): 24.6 µM
